Measurements gathered from unrelated publications.
A part holds a random share of what one study measured. Positions count from the first letter of the parent shown.

Study 1
Target: ABI1, truncated, D143A, DHFR fusion (Arabidopsis thaliana)
Method: DHFR PCA, deep sequencing
Matrix: yeast
Notes: methotrexate growth selection, single substitutions
Added: (+)-ABA 0.11 µM
Reference: wild-type fitted maximum
Reading: higher = stronger binding
Starting sequence: PYL1, truncated, DHFR fusion (Arabidopsis thaliana); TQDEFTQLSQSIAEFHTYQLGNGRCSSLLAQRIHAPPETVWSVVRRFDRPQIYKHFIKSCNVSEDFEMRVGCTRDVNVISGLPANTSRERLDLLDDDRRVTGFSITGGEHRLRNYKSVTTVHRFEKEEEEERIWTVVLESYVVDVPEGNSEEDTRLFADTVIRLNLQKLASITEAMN
Variant	relative binding score
R98T	-6.75%
V44W	0.775%
L156K	2.16%
F15P	-2.4%
S104R	0.558%
A13I	12.2%
E127C	41.4%
M68I	33.2%
E174D	3.48%
P36M	0.719%
R46P	2.24%

Study 2
Target: Sal-like protein 4, full length isoform B (SALL4, Homo sapiens, UniProt Q9UJQ4-2, residues 1-616)
Method: universal PBM
Molecule type: double-stranded DNA, one strand shown
Matrix: in vitro
Tested at: not given
Notes: 8-mer, flanks averaged, mean of replicates
Reading: higher = stronger binding
Oligonucleotide	E-score
AACGCGTG	-0.086
GCATCCTA	-0.031
CACCGTGC	-0.191
AACCTACC	-0.179
GGCAAACA	-0.0873
CGTCAACC	-0.0991
AGCTTTTA	0.0661
TCCTGAGA	-0.00389
ACCCGGTG	-0.287
CTCCGTGC	-0.316
ATACCACC	0.0513
GGGAAACA	0.0222
GATCGCTA	-0.162
AGACACCG	-0.216
ACGCTTGC	-0.133
CGATTTCC	-0.15
ACGACTGG	-0.205
GAGGTTCC	-0.125
ATCGAATA	0.216
TCGAAGAA	-0.0696
GGCTTCGA	-0.172
AACCTTGC	-0.0994
ACGATAAA	0.167
TAAGTCGA	0.127
CCAAAAAA	0.305

Study 3
Target: RING finger protein unkempt homolog, zinc fingers 1-6, SBP tag (UNK, Homo sapiens, UniProt Q9C0B0, residues 30-357)
Chain of UniProt Q9C0B0 (30-357, looked up): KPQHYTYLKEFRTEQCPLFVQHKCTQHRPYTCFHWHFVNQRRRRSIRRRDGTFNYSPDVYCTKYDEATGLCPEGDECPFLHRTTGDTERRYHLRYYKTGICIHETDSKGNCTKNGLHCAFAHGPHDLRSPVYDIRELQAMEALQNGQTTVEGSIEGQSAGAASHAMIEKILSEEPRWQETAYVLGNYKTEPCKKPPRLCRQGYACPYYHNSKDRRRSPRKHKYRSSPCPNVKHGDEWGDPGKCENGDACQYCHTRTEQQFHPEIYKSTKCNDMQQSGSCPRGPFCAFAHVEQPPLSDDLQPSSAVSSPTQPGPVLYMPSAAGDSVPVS
Method: RNA Bind-n-Seq
Molecule type: RNA
Matrix: in vitro
Tested at: 100 nM
Notes: RNA with constant flanks, vertebrate orthologous sites, ends assumed
Reference: input RNA pool
Reading: higher = stronger binding
Shared flanks, not repeated: GGGAGUUCUACAGUCCGACGAUC … CAACAGAGGAUUGAGCAUCA
Oligonucleotide	bound/input enrichment [ratio]
CAUCUCUCGUUUUAUAUGUCAAAAAAGGCUUUGAAUUUUUAAAAAAUUGCUAGUUUUGAUUAGCGCUAUCUUCAUGAAGUGUUACAACUCACCACAAACAGAUAUCUGUCUGAAUUACUU	0.395
UUACAGUCAUUGAUGGACUCUAUUUUUUUAUUAUUACUUGGACCUUGGUCGUUUUUAUACUAGCAACGAAAAAAUGUCUUGUUUUAAUUUGUUUUUUGGGGGUAUGGGGUGGGAAGUGUC	0.785
UUGGAAUCAGCUCUCUGAAUAGAAAUAGUAAUAAAAAAACCAAGCAAAAUGAUAUUUGUAUAGAAAAAACAGAAGUUAAAUCAUGUAAAGUAAAUGCUGCCAGUAUUCCAGGCCCUAAAG	2.8
UGCUCUCUUUCUAUAGGUAUCAUUGCCCAAUGCCCAAGAUCUUUUAUGUUCAGUUAACUGUAGGAAAUAAUGAAUUCUUUGGUGAAGGGAAGACUCGACAAGCUGCCAGACACAAUGCUG	0.689
UUGUGACUGGCUCUCCAAACAGGAAUAGUAGUAAAAAGAACAAACAAAAUGAUAUUUGUGUAGAAAAAUCAGAAAUUAAAUCAUGUAAAGUAAAUGCUGGCAGUAUUCCAGGGCCUAAAG	0.788
UUACAGUCAUUGAUGGACUCUAUUUUUUUAUUAUUACUUGGACCUUGGUCGUUUUUAUACUAGCAAAAUGUCUUGUUUAAUUUGUGUUUUUUGGGGGGAGGGAGGGAGUGAACUUGCUGA	2.25
CUCCUCUUAACCCCAUCUCAUCUGUUUCAUAGUGCUGAAAUUCCAUCUUCAGCCUUAUUUUUAGCGAACUUAUUCUAAUUCUAGAGAAACUUCCAGUGGAUACUGUGAGCUACAUGGAGA	1.54
CUCUUUUCAAGGUUGGAUGUACUGGAAAAGUCAUAGGAAUUGAUCACAUUAAAGAGCUAGUAGAUGACUCAAUAAAUAAUGUCAGGAAGGACGAUCCAACACUUCUGUCUUCAGGGAGAG	0.636
UUCUAGUACUUAAGCCAAUAGUUCUAAAAUGCUAUUUAUUUGUGUCUGUAAGUUUGUACAUAGUAAUUCCAAUCUCAUUGUUGCGGAAUUUUUUCAUGCAUUUGAGUUUUCCUUGAAAUU	0.458
GUGGGGGUUUGGGGGCGGGAAAGGGAAGAUGUAUGGAUGUUCUUGGCAAUUUUUUGAGUGUUUAGAGGUUUUUUUUUCACCCCCCUUUCUUCAUUUUUCUCUUUUUGCAUUUUCCUUUUA	0.936
UUUUUUUUUUUGCACAUGACAGUGUUUGUAUUGAGGAUCUUCCAAGGAAGAGGGGUGCUGUAGCAGUGGUGCCUGGGUACCUGGCCCUCCAGUGUCCCACCUCCUUCACCACCCCGCUUG	0.243

Study 4
Target: Histone acetyltransferase KAT6A, winged helix 2, GST fusion (KAT6A, Homo sapiens, UniProt Q92794, residues 85-181)
Method: protein binding microarray
Molecule type: double-stranded DNA, one strand shown
Matrix: in vitro
Tested at: not given
Notes: 8-mer, flanks averaged, mean of 2 arrays, mostly near background
Reference: not given
Reading: higher = stronger binding
Target sequence (chain): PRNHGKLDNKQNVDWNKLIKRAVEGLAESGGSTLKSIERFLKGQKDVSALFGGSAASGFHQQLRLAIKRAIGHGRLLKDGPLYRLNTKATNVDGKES
Oligonucleotide	E-score
GCTGCCCC	0.143
ACCTGAAG	-0.127
CGGGGCAA	0.148
AGGACCAC	-0.0943
ACTAACAA	-0.118
CAGTGAAA	0.149
TCTCCAGA	0.0699
AGAACCAT	0.0748
GTGTTCGA	0.155
CTCGCAAG	0.0977
AAATGTTC	-0.0457
CCGTATTC	0.0825
ATGAATCG	-0.0477
ACGCATGA	0.0113
CATGTCAG	-0.0597
ATTAAGCG	-0.0426
CATGACCC	-0.126
GACCTATA	0.000125
AGGTAGGC	-0.071
GGACTGGA	-0.00537
CCGCATCC	0.0821
AAGAAAAC	-0.0414

Study 5
Target: CCND2, cyclin fold, Cln2 fusion (human)
Method: yeast growth competition, sequencing
Matrix: yeast
Notes: weak parent motif
Reference: not given
Reading: higher = stronger binding
Starting sequence: DTL docking peptide (human); PSSMRKICTYFHR
Variant	normalised enrichment score
H12A	-0.188
K6A	-0.454
P1A	-0.387
F11A	0.0291
R13A	-0.465
M4A	-0.218

Mixed results
Molecule	target	assay	test system	setting	scale	measurement	value
PhoQ, residues 284 288 289 292 302 303 NSMLDC	PhoP, residues 12 14 15 18 19 VQALL (Escherichia coli, UniProt P23836)	Sort-seq, measured: YFP reporter	E. coli	PhoQ-PhoP variant library, added: 10 µM Mg2+	reference: high Mg2+ state, higher = stronger signaling	fold induction	12.7

A few entries again (study 4):
Oligonucleotide	E-score
ACGCATGA	0.0113
CAGTGAAA	0.149
TCTCCAGA	0.0699
CTCGCAAG	0.0977
ATGAATCG	-0.0477
